Measured values gathered from unrelated publications.
Lines come from different studies, so protocols differ. ± marks the error that the study gave.
CASP3: Caspase-3 (CASP3, Homo sapiens, UniProt P42574)
Chain of UniProt P42574 (whole entry, looked up): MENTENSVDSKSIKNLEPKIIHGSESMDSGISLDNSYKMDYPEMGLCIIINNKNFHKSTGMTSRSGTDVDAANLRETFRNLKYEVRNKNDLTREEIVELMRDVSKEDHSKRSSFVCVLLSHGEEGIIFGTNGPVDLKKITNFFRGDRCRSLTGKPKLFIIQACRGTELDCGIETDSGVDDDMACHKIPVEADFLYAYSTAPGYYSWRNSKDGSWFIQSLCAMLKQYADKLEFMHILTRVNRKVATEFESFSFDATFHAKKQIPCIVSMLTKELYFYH
CHRM3: Muscarinic acetylcholine receptor M3 (CHRM3, Homo sapiens, UniProt P20309)
Chain of UniProt P20309 (whole entry, looked up): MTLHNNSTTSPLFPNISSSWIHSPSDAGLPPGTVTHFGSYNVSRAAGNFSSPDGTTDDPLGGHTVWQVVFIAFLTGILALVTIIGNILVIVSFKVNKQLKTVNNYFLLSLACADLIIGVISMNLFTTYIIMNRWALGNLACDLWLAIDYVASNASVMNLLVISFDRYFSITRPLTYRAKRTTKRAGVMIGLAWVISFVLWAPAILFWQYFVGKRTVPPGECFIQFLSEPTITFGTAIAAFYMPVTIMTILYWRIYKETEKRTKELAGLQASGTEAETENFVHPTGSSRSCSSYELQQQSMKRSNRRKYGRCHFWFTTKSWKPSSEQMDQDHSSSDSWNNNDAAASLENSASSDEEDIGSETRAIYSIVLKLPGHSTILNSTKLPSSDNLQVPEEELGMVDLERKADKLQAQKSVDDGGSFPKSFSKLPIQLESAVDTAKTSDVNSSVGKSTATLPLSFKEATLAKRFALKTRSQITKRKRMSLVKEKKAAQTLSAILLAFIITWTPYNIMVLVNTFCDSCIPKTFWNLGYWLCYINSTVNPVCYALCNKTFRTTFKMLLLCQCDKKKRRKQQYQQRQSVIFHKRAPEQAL
Chain of UniProt Q00804 (whole entry, looked up): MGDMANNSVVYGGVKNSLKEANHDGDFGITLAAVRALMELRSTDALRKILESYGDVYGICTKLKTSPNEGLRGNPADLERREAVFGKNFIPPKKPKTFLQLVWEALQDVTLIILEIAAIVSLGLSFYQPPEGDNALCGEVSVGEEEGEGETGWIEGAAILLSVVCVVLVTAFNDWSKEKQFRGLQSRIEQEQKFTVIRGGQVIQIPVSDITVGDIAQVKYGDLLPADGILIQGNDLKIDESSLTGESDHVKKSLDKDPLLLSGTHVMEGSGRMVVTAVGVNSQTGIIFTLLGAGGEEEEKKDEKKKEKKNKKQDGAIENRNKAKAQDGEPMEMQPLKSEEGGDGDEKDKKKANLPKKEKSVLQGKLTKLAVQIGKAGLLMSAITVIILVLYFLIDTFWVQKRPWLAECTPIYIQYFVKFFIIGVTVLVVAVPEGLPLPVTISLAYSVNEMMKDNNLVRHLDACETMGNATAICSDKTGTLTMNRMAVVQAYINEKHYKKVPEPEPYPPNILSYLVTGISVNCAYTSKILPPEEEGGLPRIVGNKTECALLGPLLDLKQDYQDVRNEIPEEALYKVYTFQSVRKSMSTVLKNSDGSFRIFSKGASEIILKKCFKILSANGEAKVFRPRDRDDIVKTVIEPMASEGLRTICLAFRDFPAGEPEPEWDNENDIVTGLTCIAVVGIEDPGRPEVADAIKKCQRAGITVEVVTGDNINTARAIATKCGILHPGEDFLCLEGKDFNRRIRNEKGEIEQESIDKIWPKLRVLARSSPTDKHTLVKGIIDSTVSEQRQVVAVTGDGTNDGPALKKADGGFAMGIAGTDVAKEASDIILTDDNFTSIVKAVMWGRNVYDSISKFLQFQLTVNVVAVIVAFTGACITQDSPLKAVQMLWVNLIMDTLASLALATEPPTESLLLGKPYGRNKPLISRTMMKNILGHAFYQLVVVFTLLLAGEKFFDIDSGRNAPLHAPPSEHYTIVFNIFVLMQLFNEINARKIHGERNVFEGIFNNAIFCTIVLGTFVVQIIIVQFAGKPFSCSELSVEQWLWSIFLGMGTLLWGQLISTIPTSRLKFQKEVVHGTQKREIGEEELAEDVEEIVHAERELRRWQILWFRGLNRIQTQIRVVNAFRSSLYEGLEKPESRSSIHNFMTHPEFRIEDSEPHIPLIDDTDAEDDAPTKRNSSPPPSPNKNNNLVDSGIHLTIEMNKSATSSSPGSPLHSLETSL
Chain of UniProt P11229 (whole entry, looked up): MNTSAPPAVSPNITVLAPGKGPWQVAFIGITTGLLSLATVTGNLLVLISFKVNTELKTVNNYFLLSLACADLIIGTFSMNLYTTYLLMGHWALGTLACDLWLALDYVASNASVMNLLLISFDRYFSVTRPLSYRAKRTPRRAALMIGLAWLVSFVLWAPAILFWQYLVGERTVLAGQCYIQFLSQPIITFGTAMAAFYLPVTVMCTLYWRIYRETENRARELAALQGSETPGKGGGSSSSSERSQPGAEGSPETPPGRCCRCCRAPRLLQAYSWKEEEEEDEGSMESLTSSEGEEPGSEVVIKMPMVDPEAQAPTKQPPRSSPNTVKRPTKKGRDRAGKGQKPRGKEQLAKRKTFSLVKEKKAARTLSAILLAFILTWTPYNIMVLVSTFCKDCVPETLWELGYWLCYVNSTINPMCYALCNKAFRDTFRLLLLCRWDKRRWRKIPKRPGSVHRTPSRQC
Chain of UniProt Q9Y2K7 (whole entry, looked up): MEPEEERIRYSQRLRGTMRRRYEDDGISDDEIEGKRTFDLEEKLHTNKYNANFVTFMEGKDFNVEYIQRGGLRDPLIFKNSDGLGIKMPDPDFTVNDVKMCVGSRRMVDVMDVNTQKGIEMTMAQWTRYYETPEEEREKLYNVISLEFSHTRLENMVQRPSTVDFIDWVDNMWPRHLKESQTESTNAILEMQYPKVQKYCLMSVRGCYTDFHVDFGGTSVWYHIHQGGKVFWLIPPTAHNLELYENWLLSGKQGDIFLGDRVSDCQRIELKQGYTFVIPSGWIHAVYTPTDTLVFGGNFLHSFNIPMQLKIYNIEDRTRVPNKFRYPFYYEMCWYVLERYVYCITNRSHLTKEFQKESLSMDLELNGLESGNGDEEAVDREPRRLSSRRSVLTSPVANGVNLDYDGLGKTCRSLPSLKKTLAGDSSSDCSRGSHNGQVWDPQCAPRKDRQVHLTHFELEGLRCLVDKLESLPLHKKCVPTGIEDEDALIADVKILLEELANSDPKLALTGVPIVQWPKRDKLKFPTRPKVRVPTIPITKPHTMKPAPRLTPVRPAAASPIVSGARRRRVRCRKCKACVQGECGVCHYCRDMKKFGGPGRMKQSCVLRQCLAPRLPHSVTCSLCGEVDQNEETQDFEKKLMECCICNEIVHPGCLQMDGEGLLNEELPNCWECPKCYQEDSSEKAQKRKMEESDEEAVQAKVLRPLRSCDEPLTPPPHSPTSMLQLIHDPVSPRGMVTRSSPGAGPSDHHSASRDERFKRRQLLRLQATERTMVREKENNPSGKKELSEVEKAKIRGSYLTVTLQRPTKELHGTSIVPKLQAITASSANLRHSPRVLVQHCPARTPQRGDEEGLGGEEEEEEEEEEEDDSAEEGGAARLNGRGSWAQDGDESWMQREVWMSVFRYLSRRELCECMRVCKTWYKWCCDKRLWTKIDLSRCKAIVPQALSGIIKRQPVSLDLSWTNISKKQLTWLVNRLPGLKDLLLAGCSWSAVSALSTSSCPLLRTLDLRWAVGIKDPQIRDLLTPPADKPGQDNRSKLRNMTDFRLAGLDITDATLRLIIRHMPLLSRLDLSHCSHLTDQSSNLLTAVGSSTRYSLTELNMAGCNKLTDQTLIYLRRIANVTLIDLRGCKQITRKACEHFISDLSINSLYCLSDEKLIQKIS
Chain of UniProt P07339 (whole entry, looked up): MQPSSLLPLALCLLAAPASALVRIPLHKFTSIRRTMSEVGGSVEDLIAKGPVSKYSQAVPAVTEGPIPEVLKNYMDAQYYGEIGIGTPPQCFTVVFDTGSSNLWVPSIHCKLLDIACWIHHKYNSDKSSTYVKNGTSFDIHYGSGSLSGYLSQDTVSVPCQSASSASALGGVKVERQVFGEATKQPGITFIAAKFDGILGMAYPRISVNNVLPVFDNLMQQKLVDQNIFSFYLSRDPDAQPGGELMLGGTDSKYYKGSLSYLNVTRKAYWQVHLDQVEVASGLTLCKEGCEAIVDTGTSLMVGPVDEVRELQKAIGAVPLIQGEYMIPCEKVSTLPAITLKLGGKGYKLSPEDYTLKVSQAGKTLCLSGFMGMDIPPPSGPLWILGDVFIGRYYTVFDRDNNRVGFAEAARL
Chain of UniProt P08912 (whole entry, looked up): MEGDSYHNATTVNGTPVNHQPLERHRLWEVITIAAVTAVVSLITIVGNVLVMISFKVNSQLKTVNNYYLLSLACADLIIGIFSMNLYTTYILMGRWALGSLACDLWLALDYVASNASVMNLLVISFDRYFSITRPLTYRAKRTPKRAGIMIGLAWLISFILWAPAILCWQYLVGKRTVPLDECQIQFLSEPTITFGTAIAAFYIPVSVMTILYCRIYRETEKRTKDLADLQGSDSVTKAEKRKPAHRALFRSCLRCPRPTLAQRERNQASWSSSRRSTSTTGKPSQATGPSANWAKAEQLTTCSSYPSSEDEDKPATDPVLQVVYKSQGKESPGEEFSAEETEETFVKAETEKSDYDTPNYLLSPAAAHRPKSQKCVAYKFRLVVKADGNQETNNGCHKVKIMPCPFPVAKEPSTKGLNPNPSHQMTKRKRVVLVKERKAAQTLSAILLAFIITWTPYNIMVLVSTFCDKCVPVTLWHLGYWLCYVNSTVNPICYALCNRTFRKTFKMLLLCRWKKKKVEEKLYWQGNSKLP
Chain of UniProt P24666 (whole entry, looked up): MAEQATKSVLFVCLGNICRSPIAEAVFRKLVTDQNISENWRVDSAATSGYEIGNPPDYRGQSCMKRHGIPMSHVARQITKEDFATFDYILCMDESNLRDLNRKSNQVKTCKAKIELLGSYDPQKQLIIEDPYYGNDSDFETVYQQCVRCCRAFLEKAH

SMILES = CCC(=O)NCc1cc(C(=O)NCCN2CCN(CCCCC3CCN(CC(=O)N4c5ccccc5NC(=O)c5ccccc54)CC3)CC2)cc(C(=O)NCCN2CCN(CCOC(=O)C3c4ccccc4Oc4ccccc43)CC2)c1; target = CHRM5 (Homo sapiens, UniProt P08912); test = ligand displacement, radioligand; Ki = 42.7 nM
SMILES = C[C@H](CCC(=O)O)[C@H]1CC[C@H]2[C@@H]3[C@H](O)C[C@H]4C[C@H](OC(=O)CCC(=O)O)CC[C@]4(C)[C@H]3CC[C@]12C; target = SLC10A2 (Homo sapiens, UniProt Q12908); test = transporter uptake, inhibitor, radiometric; Ki = 73900 nM
SMILES = CCC[C@H](O)[C@H](NC[C@@H](O)[C@H](Cc1ccccc1)NC(=O)c1cccc(C(=O)N(C)[C@H](C)c2ccccc2)c1)C(=O)NCC(C)C; target = Cathepsin D (CTSD, Homo sapiens, UniProt P07339); test = enzyme activity, inhibitor; Ki = 473 nM
SMILES = CC(=O)N[C@@H](Cc1ccccc1)C(=O)N[C@@H](CC(=O)O)C(=O)N[C@H](C(=O)N1CCC[C@H]1C(=O)N[C@H](C=O)CC(=O)O)C(C)C; target = CASP3; test = enzyme activity, inhibitor, fluorescence; setting = pH 7; Ki = 3.02 nM
SMILES = COC(=O)[C@H](CCCCNCCCCN(O)C(=O)/C=C/C(=O)O)NC(=O)OCc1ccccc1; target = KDM2A (Homo sapiens, UniProt Q9Y2K7); test = ligand displacement, FP; Ki = 370 nM
SMILES = CC(=O)N[C@H](C(=O)N[C@H](C(=O)N[C@@H](CCN)C(=O)N[C@H](C=O)CC(=O)O)C(C)C)[C@@H](C)O; target = CASP3; test = enzyme activity, inhibitor, fluorescence; setting = pH 7; Ki = 37200 nM
SMILES = Cc1cc(OCCCN2CCN(c3cccc4sccc34)CC2)ccc1CN1CCCC1; target = Drd2 (Rattus norvegicus, UniProt P61169); test = cell-free assay, radioligand; Ki = 95.6 nM
SMILES = O=C1Nc2ccccc2N(C(=O)CN2CCC(CCCCN3CCN(CCCCOC(=O)C4c5ccccc5Oc5ccccc54)CC3)CC2)c2ccccc21; target = CHRM3; test = ligand displacement, radioligand; Ki = 97.7 nM
SMILES = C[C@@H]1O[C@@H](O[C@@H]2C(=O)c3c(O)cc(O)cc3O[C@@H]2c2ccc(O)cc2)[C@H](O)[C@H](O)[C@H]1O; target = PTPN1 (Homo sapiens, UniProt P18031); test = Lineweaver-Burk secondary plots; setting = free enzyme; Ki = 3190 nM
SMILES = CCC(=O)NCc1cc(C(=O)NCCN2CCC(OC(=O)C(c3ccccc3)c3ccccc3)CC2)cc(C(=O)NCCN2CCN(CCCCC3CCN(CC(=O)N4c5ccccc5NC(=O)c5ccccc54)CC3)CC2)c1; target = CHRM1 (Homo sapiens, UniProt P11229); test = ligand displacement, radioligand; Ki = 4.17 nM
SMILES = Nc1nc2c([C@@H]3N[C@H](COP(=O)(O)O)[C@@H](O)[C@H]3O)c[nH]c2c(=O)[nH]1; target = Hypoxanthine-guanine phosphoribosyltransferase (Trypanosoma cruzi, UniProt Q4DGA3); Ki = 1160 ± 390 nM
SMILES = OC[C@@H]1[C@@H](O)[C@H](O)[C@@H](O)CN1CCCCCOCC1CCOC1 (stereo partly drawn); target = GBA3 (Homo sapiens, UniProt Q9H227); test = enzyme activity, inhibitor; Ki = 180000 nM
SMILES = CC(C)C[C@H](NC(=O)[C@H](CC(C)C)NC(=O)[C@H](Cc1c[nH]cn1)NC(=O)[C@H](CC(C)C)NC(=O)[C@@H](NC(=O)[C@H](CCC(=O)O)NC(=O)[C@H](CO)NC(=O)[C@H](Cc1c[nH]c2ccccc12)NC(=O)[C@H](C)NC(=O)[C@@H](N)[C@@H](C)O)C(C)C)C(=O)N[C@@H](CO)C(=O)N[C@@H](CCCNC(=N)N)C(=O)NCC(=O)NCC(=O)NCC(=O)N[C@@H](CO)C(=O)N[C@@H](CCCCN)C(N)=O; target = Plasma membrane calcium-transporting ATPase 1 (ATP2B1, Oryctolagus cuniculus, UniProt Q00804); test = enzyme activity, inhibitor; system = duodenal mucosal plasma membranes; Ki = 105000 ± 11000 nM
SMILES = Cc1ccccc1C(=O)Nc1cccc(NC(=S)NC(=O)c2ccc3ccccc3c2)c1; target = ACP1 (Homo sapiens, UniProt P24666); test = enzyme activity, inhibitor, absorbance; Ki = 21500 nM
SMILES = CN1CCC=C(c2nsnc2OCCCCCNC(=O)CCCCCCC(=O)NCCCCCOc2nsnc2C2=CCCN(C)C2)C1; target = CHRM3; test = ligand displacement, radioligand; Ki = 7.24 nM

Some of these lines once more:
SMILES = CC(=O)N[C@H](C(=O)N[C@H](C(=O)N[C@@H](CCN)C(=O)N[C@H](C=O)CC(=O)O)C(C)C)[C@@H](C)O; target = CASP3; test = enzyme activity, inhibitor, fluorescence; setting = pH 7; Ki = 37200 nM
SMILES = Cc1cc(OCCCN2CCN(c3cccc4sccc34)CC2)ccc1CN1CCCC1; target = Drd2 (Rattus norvegicus, UniProt P61169); test = cell-free assay, radioligand; Ki = 95.6 nM
